Results from different studies.
Each line is one published result; not all experiments were run side by side. ± gives the spread as reported.

C=C/C=C/C[C@@H](C)[C@@H](O)[C@H]1C(=O)N[C@@H](CC)C(=O)N(C)CC(=O)N(C)[C@@H](CC(C)C)C(=O)N[C@@H](C(C)C)C(=O)N(C)[C@@H](CC(C)C)C(=O)N[C@@H](C)C(=O)N[C@H](C)C(=O)N(C)[C@@H](CC(C)C)C(=O)N(C)[C@@H](CC(C)C)C(=O)N(C)[C@@H](C(C)C)C(=O)N1C — plasma K+ level (Wistar Kyoto rat, male, plasma; ip, 0.5 mg/kg/day, day 18): 5.2 ± 0.2 mmol/L
O[Si](CCCN1CCCCC1)(c1ccc(F)cc1)C1CCCCC1 (stereo not drawn) — plasma concentration (mouse; oral, 20 mg/kg, 0.5 h): 89.8 nM
Cc1ccccc1-c1ccc(-c2nc(-c3ccc(CN(C)CCCC(=O)O)c([18F])c3)no2)cc1C(F)(F)F — tracer uptake (rat, muscle; 1 h): 0.08 %ID/g
N#[11C]c1ccc(-c2csc(NN=C3CCCC3)n2)cc1 — radioactivity uptake (C57BL/6 mice, male, thymus; intravenous, 3 MBq, 30 min): 1.51 ± 0.53 %ID/g
CC(C)[C@H](NC(=O)[C@@H](NC(=O)[C@H](CCCNC(=N)N)NC(=O)[C@H](CCCNC(=N)N)NC(=O)[C@H](CCCNC(=N)N)NC(=O)[C@H](CCC(N)=O)NC(=O)[C@H](CCCNC(=N)N)NC(=O)[C@H](CCCNC(=N)N)NC(=O)[C@H](CCCCN)NC(=O)[C@H](CCCCN)NC(=O)[C@H](CCCNC(=N)N)NC(=O)CN)[C@@H](C)O)C(=O)N[C@H](C(=O)N[C@@H](CO)C(=O)N1CCC[C@H]1C(=O)O)[C@@H](C)O — organ weight (ICR mice, female, lung; intranasal, 20 mg/kg daily, 4 weeks): 0.348 ± 0.023 g
CCCC[C@H]1C(=O)N(C)[C@@H](CCCC)C(=O)N[C@@H](CCCNC(=O)CN2CCN(CC(=O)O)CCN(CC(=O)O)CCN(CC(=O)O)CC2)C(=O)N[C@H](C(=O)NCC(N)=O)CSCC(=O)N[C@@H](Cc2ccc(O)cc2)C(=O)N(C)[C@@H](C)C(=O)N[C@@H](CC(N)=O)C(=O)N2CCC[C@H]2C(=O)N[C@@H](Cc2c[nH]cn2)C(=O)N[C@@H](CC(C)C)C(=O)N(C)CC(=O)N[C@@H](Cc2c[nH]c3ccccc23)C(=O)N[C@@H](CO)C(=O)N[C@@H](Cc2c[nH]c3ccccc23)C(=O)N1C [gallium-68 labelled] — tissue uptake (NOD/SCID mice, CHO-hPD-L1 xenograft, muscle; 60 min, together with: blocking agent 50 µg co-injected): 2.16 ± 0.59 %ID/g
CSCC[C@@H]1NC(=O)[C@H](C(C)C)NC(=O)[C@H](CCCNC(=N)N)NC(=O)CNC(=O)[C@@H]2CCCN2C(=O)[C@@H](NC(=O)CNC(=O)[C@H](CO)NC(=O)CNC(=O)[C@H](CO)NC(=S)Nc2ccc(C[C@H]3CN(CC(=O)O)CCN(CC(=O)O)CCN3CC(=O)O)cc2)CSSC[C@@H](C(N)=O)NC(=O)[C@@H]2CCCN2C(=O)CNC(=O)[C@H](CCC(=O)O)NC(=O)[C@H](CC(=O)O)NC(=O)[C@H](CC(=O)O)NC(=O)CNC(=O)[C@H](CC(C)C)NC(=O)[C@H](Cc2c[nH]cn2)NC(=O)[C@H](CC(C)C)NC(=O)CNC(=O)[C@H](Cc2c[nH]cn2)NC1=O [copper-64 labelled] — half-life (dynamic PET; CD rat, myocardial infarction model, left ventricular blood pool; intravenous, 18.5 MBq, 5 to 60 min): 22.8 ± 4.2 min
CC(C)[C@@H]1NC(=O)CNC(=O)[C@H](CC(N)=O)NC(=O)[C@H](CCCNC(=N)N)NC(=O)[C@H](Cc2ccc(O)cc2)NC(=O)[C@H](C(C)C)NC(=O)[C@@H](NC(=O)[C@@H](NC(=O)[C@H](CC(N)=O)NC(=O)[C@H](Cc2c[nH]c3ccccc23)NC(=O)[C@H](C)NC(=O)[C@H](Cc2ccccc2)NC(=O)CNC(=O)[C@H](CCCCN)NC(=O)[C@H](Cc2ccccc2)NC(=O)[C@H](Cc2ccccc2)NC(=O)[C@H](CCCCN)NC(=O)OCC2c3ccccc3-c3ccccc32)C(C)C)CSSC[C@@H](C(=O)N[C@@H](Cc2c[nH]cn2)C(=O)N[C@@H](CCCNC(=N)N)C(=O)N[C@@H](CCCNC(=N)N)C(=O)N[C@@H](C)C(=O)N[C@@H](CC(N)=O)C(N)=O)NC(=O)[C@H](C(C)C)NC(=O)[C@H](CCCNC(=N)N)NC1=O — haematocrit (ICR mice, blood; intraperitoneal, 5 mg/kg, day 5): 41.8 ± 1.76%
CN1Cc2cc(Cl)ccc2-n2c(nnc2C2CCN(c3cccc([18F])n3)CC2)C1 — total volume of distribution (PET two-tissue compartment model; rhesus monkey, thalamus; intravenous, dose not given, 80 min scan, baseline scan): 1.11 ± 0.32 mL/cm3
O=C1NC2(CC2)COc2ncc(F)cc2[C@H]2COCCN2c2ccn3ncc1c3n2 — alanine aminotransferase activity (Sprague-Dawley rat, female, serum; oral, 20 mg/kg/day, 4 weeks daily, end of treatment): 30.9 ± 5.1 U/L
CC(=O)NCCCC[C@@H]1NC(=O)[C@H](Cc2c[nH]c3c(C)cccc23)NC(=O)[C@H]([C@@H](C)O)NC(=O)[C@H](CC(N)=O)NC(=O)[C@@H](NC(C)=O)C(C)(C)SSC(C)(C)[C@@H](C(=O)N[C@@H](Cc2ccc(OCCN)cc2)C(=O)N[C@@H](Cc2ccc3ccccc3c2)C(=O)NC2(C(=O)N[C@@H](CCC(=O)O)C(=O)N[C@@H](CC(N)=O)C(=O)N[C@@H](Cc3cccnc3)C(=O)N(C)CC(N)=O)CCOCC2)NC1=O — plasma protein binding (equilibrium dialysis; rat, plasma; 0.01 µM): 50.8 ± 3%
CCCCCC(=O)N[C@@H](CCCNC(=N)N)C(=O)N[C@@H](Cc1c[nH]c2ccccc12)C(=O)N[C@@H](CCCCN)C(=O)N[C@H](C(=O)N[C@@H](Cc1ccccc1)C(=O)N[C@@H](CCCCN)C(=O)N[C@@H](CCCCN)C(=O)N[C@H](C(=O)N[C@@H](CCC(=O)O)C(=O)N[C@@H](CCCCN)C(=O)N[C@H](C(=O)NCC(=O)N[C@@H](CCC(N)=O)C(=O)N[C@@H](CC(N)=O)C(=O)N[C@H](C(=O)N[C@@H](CCCNC(=N)N)C(=O)N[C@@H](CC(=O)O)C(=O)NCC(=O)N[C@H](C(=O)N[C@H](C(=O)N[C@@H](CCCCN)C(=O)N[C@@H](C)C(=O)NCC(=O)N1CCC[C@H]1C(=O)N[C@@H](C)C(=O)N[C@H](C(=O)N[C@@H](C)C(=O)N[C@H](C(=O)N[C@H](C(=O)NCC(=O)N[C@@H](CCC(N)=O)C(=O)N[C@@H](C)C(=O)N[C@@H](C)C(=O)N[C@H](C(=O)N[C@H](C(N)=O)[C@@H](C)CC)[C@@H](C)O)C(C)C)C(C)C)C(C)C)C(C)C)[C@@H](C)CC)[C@@H](C)CC)C(C)C)[C@@H](C)CC)[C@@H](C)CC — hemolysis (mouse erythrocytes; 32 µM, 1 h, 37 °C): < 8%

Some of these lines once more:
N#[11C]c1ccc(-c2csc(NN=C3CCCC3)n2)cc1 — radioactivity uptake (C57BL/6 mice, male, thymus; intravenous, 3 MBq, 30 min): 1.51 ± 0.53 %ID/g
CC(C)[C@H](NC(=O)[C@@H](NC(=O)[C@H](CCCNC(=N)N)NC(=O)[C@H](CCCNC(=N)N)NC(=O)[C@H](CCCNC(=N)N)NC(=O)[C@H](CCC(N)=O)NC(=O)[C@H](CCCNC(=N)N)NC(=O)[C@H](CCCNC(=N)N)NC(=O)[C@H](CCCCN)NC(=O)[C@H](CCCCN)NC(=O)[C@H](CCCNC(=N)N)NC(=O)CN)[C@@H](C)O)C(=O)N[C@H](C(=O)N[C@@H](CO)C(=O)N1CCC[C@H]1C(=O)O)[C@@H](C)O — organ weight (ICR mice, female, lung; intranasal, 20 mg/kg daily, 4 weeks): 0.348 ± 0.023 g
